Measured values gathered from unrelated publications.
Compare with care: the assays were run in different laboratories. Values joined by “and” are separate records of one study, mostly repeats; a detail may differ. ± marks the error that the study gave.
Cell line: HeLa

COc1ccc(CNC[C@@](O)(COCc2ccccc2)[C@@H]2CC[C@@H](C)C[C@H]2OCc2ccccc2)cc1
IC50 (cell growth or viability, MTT; 72 h): 2.38 µM

Cc1c(COc2cc(OCc3cccc(C#N)c3)c(CNC(C)(CO)CO)cc2Cl)cccc1-c1cccc(OCCCCCC(=O)NO)c1
IC50 (cell growth or viability, CCK-8; 48 h): 3.5 µM

O=C(NCCOCCOCCNC(=O)c1cc2ccccc2c2ccccc12)c1cc(C(=O)N2CCNCCNCCNCC2)c(O)c(C(=O)N2CCNCCNCCNCC2)c1
IC50 (cell growth or viability, MTT; 24 h): > 1000 µM

CCC(=CCc1c(O)cc2c(c1O)C(=O)CC(c1cccc(O)c1OC)O2)CC (stereo not shown)
IC50 (cell growth or viability, MTT; 48 h): 26.9 µM

C[n+]1c(/C=C/c2ccc(N(c3ccccc3)c3ccccc3)cc2)cc(/C=C2\Sc3ccccc3N2CCCN2CCCC2)c2ccccc21
IC50 (cell growth or viability, MTT; 36 h): 6.24 µM

CNC(=O)C1CCCN(C(=O)C2CC3CCC2N3C(=O)[C@@H]2C[C@@H](O)CN2C(=O)NCc2cccc(Cl)c2F)C1 (mixture of isomers)
IC50 (cell growth or viability, CCK-8; 72 h): 0.45 µM

O=[C]=[Mn-2]12(=[C]=O)(=[C]=O)[O]c3cc4c(cc3=[N+]1CCc1ccccc1)[O][Mn-2](=[C]=O)(=[C]=O)(=[C]=O)([N+]=4CCc1ccccc1)[n+]1ccc(cc1)C(=O)Oc1ccccc1OC(=O)c1cc[n+]2cc1
IC50 (cell growth, MTT; 48 h, LED photolysed 1 h): 31.9 ± 2.63 µM

C[C@H]1c2cccc(O)c2C(O)=C2C(=O)[C@]3(O)C(O)=C(C(N)=O)C(=O)[C@@H](N(C)C)[C@@H]3[C@@H](O)[C@@H]21
IC50 (cell growth or viability): > 10 µM

NCCOc1cc(NC(=O)c2cc(OCc3cn([C@H]4O[C@@H](CO)[C@H](O)[C@@H](O)[C@@H]4O)nn3)cc(C(=O)Nc3cc(OCCN)c4ccccc4n3)n2)nc2ccccc12
IC50 (cell growth or viability, ATP luminescence; 72 h): > 40 µM

COc1ccc(N2C(=O)CS/C2=N\N=C\c2cccc3cc4ccccc4nc23)cc1
IC50 (cell growth or viability, MTT; 48 h): 17.9 µM

COC(=O)[C@@H](NC(=O)[C@@H](NC(=O)OC(C)(C)C)C(C)C)C(C)C
IC50 (cell growth or viability, SRB): 3.42 µM and 7.99 µM and 6.13 µM

Cc1c(COc2cc(OCc3cccc(C#N)c3)c(CN3CCCC[C@@H]3C(=O)O)cc2Cl)cccc1-c1cccc(OCCCCCCC(=O)NO)c1
IC50 (cell growth or viability, CCK-8; 48 h): > 20 µM

[Co+2].[O-]c1c(I)cc(I)c2cccnc12.[O-]c1c(I)cc(I)c2cccnc12.c1cnc2c(c1)ccc1cccnc12
IC50 (cell growth or viability, MTT; 48 h): 10.6 µM

C[C@@H]1CC[C@@H]([C@](O)(CNCc2ccccc2F)COCc2ccccc2)[C@H](OCc2ccccc2)C1
IC50 (cell growth or viability, MTT; 72 h): 2.38 µM

CC1(C)S[C@@H]2[C@H](NC(=O)[C@H](NC(=O)C3=C(O)C(c4ccccc4F)NC3=O)c3ccccc3)C(=O)N2[C@H]1C(=O)O (stereo partly shown)
IC50 (cell growth or viability, ATP luminescence; 48 h): 77.3 µg/mL

Cc1ccc2c(Cl)cc(Cl)c([O-])c2n1.Cc1ccc2c(Cl)cc(Cl)c([O-])c2n1.Clc1ccnc2c1ccc1c(Cl)ccnc12.[Co+2]
IC50 (cell growth or viability, MTT; 48 h): 1.09 µM

CCOC(=O)/C=C1\S/C(=N\N=C\c2cccc3cc4ccccc4nc23)N(c2ccc(OC)cc2)C1=O
IC50 (cell growth or viability, MTT; 48 h): 37.6 µM

NC[C@H]1O[C@H](O[C@H]2[C@H](O)[C@@H](O[C@H]3O[C@H](CO)[C@@H](O)[C@H](N)[C@H]3O)[C@H](N)C[C@@H]2N)[C@H](N)C[C@@H]1O
IC50 (cell growth or viability): > 10 µM

COc1ccnc(-c2cc(OC)ccn2)c1.[Co+2].[O-]c1c(I)cc(I)c2cccnc12.[O-]c1c(I)cc(I)c2cccnc12
IC50 (cell growth or viability, MTT; 48 h): 9.54 µM

For quick reference, copied from above:
COc1ccc(N2C(=O)CS/C2=N\N=C\c2cccc3cc4ccccc4nc23)cc1
IC50 (cell growth or viability, MTT; 48 h): 17.9 µM

COC(=O)[C@@H](NC(=O)[C@@H](NC(=O)OC(C)(C)C)C(C)C)C(C)C
IC50 (cell growth or viability, SRB): 3.42 µM and 7.99 µM and 6.13 µM
